Assay results of several laboratories.
Protocols differ between the studies behind these lines. ± marks the error that the study gave. Values after ≈ are worked out from the molar mass of the structure shown.

For `Cc1n[nH]c(C)c1CCOC(=O)c1cccc2c1oc(=O)n2C`, the kinetic solubility was greater than 100 µM (PBS, 1% DMSO; pH 7.4).
With `CCOC(=O)CC[C@H](NC(=O)c1ccc(N(C)Cc2cnc3nc(N)nc(N)c3n2)cc1)C(=O)OCC` the logP was 2.14.
With `O=C1Nc2cccc(C#CC3(O)CCNCC3)c2/C1=C/c1cc2ccccc2[nH]1` the oral bioavailability was less than 5% (C57BL/6 mouse; oral, 10 mg/kg).
With `COCCOc1ccc2nc(-c3cn(-c4ccc(O)cc4)nn3)ccc2c1` the aqueous solubility was 9.9 µM (≈ 3.59 µg/mL) (shake-flask; Britton-Robinson buffer; 48 h, pH 6.5, 30 °C).
For `COc1ccc2c(c1)S(=O)(=O)N(CCCCCc1ccccc1)C(=O)O2`, chemical stability read “stable” (DPBS and DMEM).
For `NC1CCN(Cc2ccn3ncnc(Nc4cccc(-c5cnco5)c4)c23)CC1`, “total plasma concentration” read 8.4 µM (mouse, plasma; intraperitoneal, 30 mg/kg, 90 min).
With `Cc1c(-c2ccccc2)nn2c(=O)cc(-c3cccc(-c4nnn[nH]4)c3)[nH]c12` the remaining compound was 90.2% (mouse liver microsomes; 1 µM, 30 min).
`NC(=O)c1cn(-c2ccc(F)cc2)c2ccc(CN3CCSCC3)cc2c1=O` has an unbound fraction of 0.205 (rat, plasma).
`CC(=O)N1CC=C(c2cc3c(Nc4cc5ncsc5cc4F)ncnc3s2)CC1` has an intrinsic clearance of 12 mL/min/g protein (human liver microsomes; 1 µM).
`CC(=NN=c1[nH]c2cc(F)c(F)cc2n1C)c1ccc(F)cn1` — result for ALP level: “no effect” (CD-1 IGS mice female, plasma; i.p., 20 mg/kg/day, two weeks; baseline: vehicle).
`CC(C)n1nnc(-c2cc(O)cc(Nc3ncnn4ccc(CN5CCC(N)CC5)c34)c2)n1` — result for “free plasma concentration”: 60 nM (from plasma protein binding; mouse, plasma; subcutaneous, 60 mg/kg, 90 min).
`Cc1ncsc1-c1ccc([C@H](C)NC(=O)[C@@H]2C[C@@H](O)CN2C(=O)[C@@H](NC(=O)CCCCCCC(=O)N2CCN(C[C@]3(C)CCC(c4ccc(Cl)cc4)=C(CN4CCN(c5ccc(C(=O)NS(=O)(=O)c6ccc(N[C@H](CCN7CCOCC7)CSc7ccccc7)c(S(=O)(=O)C(F)(F)F)c6)cc5)CC4)C3)CC2)C(C)(C)C)cc1`: “body and liver weight” “no effect” (naturally aged mice; intraperitoneal, 5 mg/kg every 3 days).
`CCCSc1nc(N[C@@H]2C[C@H]2c2ccc(F)c(F)c2)c2nnn([C@@H]3C[C@H](O)[C@@H](O)[C@H]3O)c2n1` gave an AUC of 5.4 µM·h (rat, female, plasma; oral, 20 mg/kg/day ticagrelor, day 1).
`Cc1cc(SCc2sc(-c3cc4ccccc4o3)nc2C)ccc1OCC(=O)O` gave a CC50 of greater than 80 µM (HEK293T; 18 h).
With `O=C(NO)[C@H]1COC(c2ccc([N+](=O)[O-])cc2)=N1` the solubility was 30.2 mg/mL (≈ 120 mM) (aqueous buffer; pH 7.4).
For `NC(=O)c1cn(-c2ccc(F)cc2)c2ccc(CCc3cccnc3)cc2c1=O`, the unbound fraction was 0.062 (rat, plasma).
For `O=C(NO)C1CSC(c2ccc(F)c(C(F)(F)F)c2)=N1` (stereo not shown), the solubility was 42.3 mg/mL (≈ 137 mM) (aqueous buffer; pH 7.4).
With `Cc1cc(NC(=O)c2cccc(NC(=O)C3=CC(C)(C)CCC3=O)c2)ccc1Nc1nccc(-c2cccnc2)n1` the compound remaining was 97.7% (rat plasma; 1 µM, 10 min).
`Cc1ncc(OCc2ccc3c(c2)c(=O)c(C(N)=O)cn3-c2ccc(F)cc2)cn1` has a fraction unbound of greater than 10% (rat, plasma).
`Cc1cc(SCc2sc(-c3ccccc3Cl)nc2C)ccc1OCC(=O)O` has a CC50 of greater than 80 µM (HEK293T; 18 h).
`O=C(OC(C(F)(F)F)C(F)(F)F)N1Cc2ccc(Br)cc2C1` has a brain concentration of 0.008 ± 0.002 µg/g (male CD-1 mouse, brain; oral, 8 mg/kg, 30 min, cassette dosing).
With `NC(=O)c1cn(-c2ccc(F)cc2)c2ccc(NCc3cccnc3)cc2c1=O` the concentration was 3 nM (rat, brain; iv, 0.2 mg/kg, 15 min, cassette dosing).
`Nc1ncc(-c2ccc3ncnc(N4CCc5cc(F)c(Cl)cc54)c3c2)cn1` gave an AUC(0-t) of 2900 ng·h/mL (CD1 mouse, brain; intravenous, 5 mg/kg).
The logD of `O=C(NO)C1CSC(c2ccc(F)cc2)=N1` (stereo not shown) is reported as -0.51 (octanol/buffer; pH 11).
`CCN(CC)c1ccc2c(-c3ccccc3C(=O)N(C)CCCC(=O)N[C@@H](CC(C)C)C(=O)N[C@@H](CCCNC(=N)N)C(=O)N[C@@H](CCCNC(=N)N)C(=O)N[C@@H](C)C(=O)N[C@@H](CO)C(=O)N[C@@H](CC(C)C)C(=O)NCC(=O)O)c3ccc(=[N+](CC)CC)cc-3oc2c1` — result for “absorption maximum wavelength”: 566 nm (UV/Vis; phosphate buffer 25 mM; 100 µM, pH 7.4).
The remaining compound of `CCOc1ccccc1Nc1nnc(SCC(=O)Nc2cc(F)ccc2F)s1` is reported as greater than 95% (simulated gastric fluid; 2 h, pH 1.2).
The Cmax of `COc1ccc(CC(=O)OCc2ccc(-n3cccn3)cc2)cc1F` is reported as 3020 ng/mL (BALB/c mouse, plasma; oral, 10 mg/kg).
`CSc1cc(NC(=O)c2ccccn2)ccc1F`: “elimination rate constant” 0.121 min⁻¹ (rat liver microsomes).
With `Oc1c(Cl)cccc1CNc1nc2ccccc2n1CC1CC1` the half-life was 4.3 min (mouse, liver microsomes; 1 µM, 37 °C, added: NADPH).
`NC(=O)c1cn(-c2ccc(F)cc2)c2ccc(NCCc3cccnc3)cc2c1=O` gave an unbound fraction of 0.037 (rat, plasma).
`COC(=O)[C@@H]1C(C=Nc2ccccc2O)=Cc2cc3c(cc2[C@H]1c1cc(OC)c(OC)c(OC)c1)OCO3` gave a selectivity index of 0.1 (Leishmania infantum; Alamar Blue; HepG2; baseline: CC50 HepG2 over EC50 amastigotes).
`O=C(O)c1cccc(-c2nc(-c3ccccc3F)c3sccn23)c1` gave a remaining compound of 60.2% (human liver microsomes; 1 µM, 30 min).
For `CN(C)c1ccc(C2=N[C@@H](C(=O)NO)CO2)cc1`, the solubility was 14.1 mg/mL (≈ 56.7 mM) (aqueous buffer; pH 7.4).
`Cc1ncc(CCc2ccc3c(c2)c(=O)c(C(N)=O)cn3-c2ccc(F)cc2)cn1` gave an unbound fraction of 0.157 (rat, plasma).

Repeated from above:
With `COCCOc1ccc2nc(-c3cn(-c4ccc(O)cc4)nn3)ccc2c1` the aqueous solubility was 9.9 µM (≈ 3.59 µg/mL) (shake-flask; Britton-Robinson buffer; 48 h, pH 6.5, 30 °C).
For `COc1ccc2c(c1)S(=O)(=O)N(CCCCCc1ccccc1)C(=O)O2`, chemical stability read “stable” (DPBS and DMEM).
For `NC1CCN(Cc2ccn3ncnc(Nc4cccc(-c5cnco5)c4)c23)CC1`, “total plasma concentration” read 8.4 µM (mouse, plasma; intraperitoneal, 30 mg/kg, 90 min).
With `Cc1c(-c2ccccc2)nn2c(=O)cc(-c3cccc(-c4nnn[nH]4)c3)[nH]c12` the remaining compound was 90.2% (mouse liver microsomes; 1 µM, 30 min).
